# Experimental data collected from several papers.
# Parts stem from different laboratories: compare values within a part only. Changes are numbered by the printed parent chain.

# Sample 1
# Target: CCNF, cyclin fold, Cln2 fusion (human)
# Technique: yeast growth competition, sequencing
# Sample: yeast
# Notes: strong parent motif
# Baseline: not given
# Direction: higher = stronger binding
# Parent: INSM1 docking peptide (human); PKAIRKLHFEDEV; partner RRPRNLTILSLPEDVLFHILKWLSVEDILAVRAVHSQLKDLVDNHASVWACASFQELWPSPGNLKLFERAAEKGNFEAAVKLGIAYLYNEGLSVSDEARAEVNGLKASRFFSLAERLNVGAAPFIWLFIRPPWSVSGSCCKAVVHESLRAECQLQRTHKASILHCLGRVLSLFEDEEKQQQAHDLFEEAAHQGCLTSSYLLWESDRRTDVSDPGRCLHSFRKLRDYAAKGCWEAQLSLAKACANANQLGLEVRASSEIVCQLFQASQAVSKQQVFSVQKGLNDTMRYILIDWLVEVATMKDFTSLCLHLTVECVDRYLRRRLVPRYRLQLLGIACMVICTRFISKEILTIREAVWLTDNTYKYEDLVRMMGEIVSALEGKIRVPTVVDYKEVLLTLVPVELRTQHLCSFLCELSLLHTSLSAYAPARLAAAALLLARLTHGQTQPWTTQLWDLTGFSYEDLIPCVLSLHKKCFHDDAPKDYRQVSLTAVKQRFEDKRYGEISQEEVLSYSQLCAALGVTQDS
Variant,normalised enrichment score
H8D,6.37
K6P,2.7
H8R,7.56
H8T,6.93

# Sample 2
# Target: Fragile X messenger ribonucleoprotein 1, C-terminal low-complexity region (Fmr1, Mus musculus, UniProt P35922)
# Technique: RNA Bind-n-Seq
# Molecule type: RNA
# Sample: in vitro
# Tested at: 200 nM
# Notes: whole 134-nt RNA, ends assumed
# Together with: 150 mM KCl
# Baseline: input library
# Direction: higher = stronger binding
Oligonucleotide,log2 enrichment
GGGAGUUCUACAGUCCGACGAUCCUGUGCUACACAUCGUAUGUACCGAAUCGGGGUUUUUUUGGGGUUUUUGGGGAAAAAGGGGAAAGUAUUAUGUUACGCCGUUCGGAUCUGUGGAAUUCUCGGGUGUCAAGG,-0.261
GGGAGUUCUACAGUCCGACGAUCUGCUCUUCACCAAGGAGGACGAGCCUGGCCGCUGCGACGUCCUGAGGAACCCCCUCUACCUCCAGAGUGUGAAGCUGCAGGAAGGUAAGCUGGAAUUCUCGGGUGUCAAGG,-0.00557
GGGAGUUCUACAGUCCGACGAUCAAGUCCUGUGCUACACAUCGUAUGUACCGAAUCGGGGUUUGGGGAGGGGAAAGGGGAAAGUAUUAUGUUACGCCGUUCGGAUCUGCACUUUGGAAUUCUCGGGUGUCAAGG,0.768
GGGAGUUCUACAGUCCGACGAUCUCAAGUCCUGUGCUACACAUCGUAUGUACCGAAUCGGAAAAAGGUUUUUGGUGGAAAGUAUUAUGUUACGCCGUUCGGAUCUGCACUUCCUGGAAUUCUCGGGUGUCAAGG,-0.673

# Sample 3
# Target: Interferon regulatory factor 5, full length, phosphomimetic (IRF5, Homo sapiens, UniProt Q13568-2, residues 1-514, K96S/S451D/S453D/S456D/S462D)
# Technique: protein-binding microarray
# Molecule type: double-stranded DNA, one strand shown
# Sample: in vitro
# Tested at: 250 nM
# Notes: 60-bp whole probe
# Together with: salmon DNA 0.4 mg/ml
# Baseline: random background probes
# Direction: higher = stronger binding
# All sequences stand within: GCCTAGCAC … GTCTTGATTCGCTTGACGCTGCTG
Oligonucleotide,log fluorescence [z-score]
TTAGTTATCGGGACTGGATTAGTGCTA,1.77
GACGGTCTCCTTTTCCCGACGTGCTAG,0.219
TCAAGTTTAATATCTAAGACTGTGCTA,0.19
GACGGTTTCGAGTATCGGGACGTGCTA,6.14
GACGGTTTCGACACTGGTGACGTGCTA,4.63
TTAGATATCAGTTACGATTAGTGCTAG,1.71

# Single results of other studies
Molecule,target,assay,system,conditions,scale,endpoint,result
"PhoQ, residues 284 288 289 292 302 303 ALVSVA","PhoP, residues 12 14 15 18 19 QYCSL (Escherichia coli, UniProt P23836)","Sort-seq, refers to: YFP reporter",E. coli,"PhoQ-PhoP variant library, together with: 10 µM Mg2+","baseline: high Mg2+ state, higher = stronger signaling",fold induction,21.2

# A few entries again (sample 1):
Variant,normalised enrichment score
K6P,2.7
H8R,7.56
